Results of several laboratories.
Compare with care: the assays were run in different laboratories.
MTNR1A: Melatonin receptor type 1A (MTNR1A, Homo sapiens, UniProt P48039)
UniProt P48039, sequence (whole entry, looked up): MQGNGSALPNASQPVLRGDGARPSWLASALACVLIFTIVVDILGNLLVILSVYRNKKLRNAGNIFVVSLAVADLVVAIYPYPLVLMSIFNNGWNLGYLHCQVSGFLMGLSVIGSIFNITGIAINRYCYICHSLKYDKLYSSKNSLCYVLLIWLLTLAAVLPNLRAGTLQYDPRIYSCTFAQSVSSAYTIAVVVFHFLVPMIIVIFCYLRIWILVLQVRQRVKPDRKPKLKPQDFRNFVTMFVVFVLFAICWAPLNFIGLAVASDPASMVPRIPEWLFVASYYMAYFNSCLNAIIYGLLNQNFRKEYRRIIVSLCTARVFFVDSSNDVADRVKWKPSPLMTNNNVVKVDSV
UniProt P57059, sequence (whole entry, looked up): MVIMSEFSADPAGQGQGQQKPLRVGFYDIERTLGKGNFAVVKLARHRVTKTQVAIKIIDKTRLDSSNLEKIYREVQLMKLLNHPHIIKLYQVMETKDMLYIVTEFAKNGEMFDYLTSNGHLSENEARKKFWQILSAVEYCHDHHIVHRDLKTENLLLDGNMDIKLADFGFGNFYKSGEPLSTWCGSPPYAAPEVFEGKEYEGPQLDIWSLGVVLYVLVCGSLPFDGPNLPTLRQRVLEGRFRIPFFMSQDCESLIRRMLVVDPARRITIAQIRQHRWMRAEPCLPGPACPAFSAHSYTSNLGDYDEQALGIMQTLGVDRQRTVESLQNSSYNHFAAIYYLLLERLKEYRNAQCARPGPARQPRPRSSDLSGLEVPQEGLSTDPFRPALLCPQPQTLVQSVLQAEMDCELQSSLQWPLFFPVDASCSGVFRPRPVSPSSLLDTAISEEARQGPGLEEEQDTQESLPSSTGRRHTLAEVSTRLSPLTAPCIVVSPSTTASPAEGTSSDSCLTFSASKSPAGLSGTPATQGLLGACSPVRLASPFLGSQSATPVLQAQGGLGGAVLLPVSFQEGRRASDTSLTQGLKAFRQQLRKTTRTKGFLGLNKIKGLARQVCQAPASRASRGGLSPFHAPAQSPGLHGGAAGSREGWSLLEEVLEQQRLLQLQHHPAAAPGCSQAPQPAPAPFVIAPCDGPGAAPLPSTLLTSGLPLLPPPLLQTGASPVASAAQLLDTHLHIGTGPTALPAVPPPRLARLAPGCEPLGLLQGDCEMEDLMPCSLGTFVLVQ
UniProt Q06187, sequence (whole entry, unmodified, looked up): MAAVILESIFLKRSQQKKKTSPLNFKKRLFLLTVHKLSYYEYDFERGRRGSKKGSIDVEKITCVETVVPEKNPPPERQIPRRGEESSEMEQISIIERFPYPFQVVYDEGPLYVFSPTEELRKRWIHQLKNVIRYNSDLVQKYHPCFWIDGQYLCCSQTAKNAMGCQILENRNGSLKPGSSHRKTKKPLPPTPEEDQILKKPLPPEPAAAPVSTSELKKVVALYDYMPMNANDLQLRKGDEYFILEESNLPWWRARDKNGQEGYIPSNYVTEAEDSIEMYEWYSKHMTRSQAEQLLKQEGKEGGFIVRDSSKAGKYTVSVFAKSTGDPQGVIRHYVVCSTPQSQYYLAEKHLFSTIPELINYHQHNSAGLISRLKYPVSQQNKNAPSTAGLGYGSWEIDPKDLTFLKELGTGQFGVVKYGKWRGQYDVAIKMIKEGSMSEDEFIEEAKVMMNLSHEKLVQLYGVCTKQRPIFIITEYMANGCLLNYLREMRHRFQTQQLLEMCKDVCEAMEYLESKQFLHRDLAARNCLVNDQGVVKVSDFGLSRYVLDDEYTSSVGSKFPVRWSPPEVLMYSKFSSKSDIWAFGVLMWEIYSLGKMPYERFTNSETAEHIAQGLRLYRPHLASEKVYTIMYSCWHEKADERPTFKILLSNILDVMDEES
UniProt Q13188, sequence (whole entry, looked up): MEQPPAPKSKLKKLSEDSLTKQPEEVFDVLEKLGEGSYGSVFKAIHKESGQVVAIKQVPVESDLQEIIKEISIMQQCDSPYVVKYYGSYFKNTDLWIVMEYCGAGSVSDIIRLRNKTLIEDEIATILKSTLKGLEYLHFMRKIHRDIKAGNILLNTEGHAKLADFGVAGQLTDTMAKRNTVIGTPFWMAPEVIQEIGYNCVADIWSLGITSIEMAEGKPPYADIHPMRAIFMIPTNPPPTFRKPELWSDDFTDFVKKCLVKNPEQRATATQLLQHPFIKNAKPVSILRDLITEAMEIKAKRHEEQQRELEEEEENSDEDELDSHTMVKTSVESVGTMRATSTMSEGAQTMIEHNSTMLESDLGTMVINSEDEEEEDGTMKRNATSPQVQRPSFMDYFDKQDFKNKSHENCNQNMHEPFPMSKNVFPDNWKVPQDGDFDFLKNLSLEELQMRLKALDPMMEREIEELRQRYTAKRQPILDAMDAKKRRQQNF
UniProt Q12852, sequence (whole entry, looked up): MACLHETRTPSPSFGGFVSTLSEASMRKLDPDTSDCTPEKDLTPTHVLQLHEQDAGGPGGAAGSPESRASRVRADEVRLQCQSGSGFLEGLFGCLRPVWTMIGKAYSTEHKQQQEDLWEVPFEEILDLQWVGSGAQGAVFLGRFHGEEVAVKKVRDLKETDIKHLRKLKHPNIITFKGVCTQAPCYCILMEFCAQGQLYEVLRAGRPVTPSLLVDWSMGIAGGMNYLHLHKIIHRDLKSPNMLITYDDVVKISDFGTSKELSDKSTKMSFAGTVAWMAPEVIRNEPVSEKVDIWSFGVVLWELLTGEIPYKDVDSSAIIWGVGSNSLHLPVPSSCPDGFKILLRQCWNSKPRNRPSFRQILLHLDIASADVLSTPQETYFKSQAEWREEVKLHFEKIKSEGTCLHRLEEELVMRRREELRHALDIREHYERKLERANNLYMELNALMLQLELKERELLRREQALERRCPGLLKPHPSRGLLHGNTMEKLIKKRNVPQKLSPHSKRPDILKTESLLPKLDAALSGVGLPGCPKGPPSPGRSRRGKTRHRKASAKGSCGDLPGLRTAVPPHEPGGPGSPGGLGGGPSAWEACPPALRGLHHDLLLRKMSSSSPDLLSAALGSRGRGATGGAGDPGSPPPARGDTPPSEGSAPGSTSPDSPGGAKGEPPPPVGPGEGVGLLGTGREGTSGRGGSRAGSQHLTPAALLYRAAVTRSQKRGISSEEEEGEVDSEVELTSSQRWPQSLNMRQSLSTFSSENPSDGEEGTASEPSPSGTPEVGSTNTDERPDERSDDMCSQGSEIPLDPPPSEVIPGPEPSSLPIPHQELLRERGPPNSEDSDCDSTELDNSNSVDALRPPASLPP
UniProt Q13557, sequence (whole entry, looked up): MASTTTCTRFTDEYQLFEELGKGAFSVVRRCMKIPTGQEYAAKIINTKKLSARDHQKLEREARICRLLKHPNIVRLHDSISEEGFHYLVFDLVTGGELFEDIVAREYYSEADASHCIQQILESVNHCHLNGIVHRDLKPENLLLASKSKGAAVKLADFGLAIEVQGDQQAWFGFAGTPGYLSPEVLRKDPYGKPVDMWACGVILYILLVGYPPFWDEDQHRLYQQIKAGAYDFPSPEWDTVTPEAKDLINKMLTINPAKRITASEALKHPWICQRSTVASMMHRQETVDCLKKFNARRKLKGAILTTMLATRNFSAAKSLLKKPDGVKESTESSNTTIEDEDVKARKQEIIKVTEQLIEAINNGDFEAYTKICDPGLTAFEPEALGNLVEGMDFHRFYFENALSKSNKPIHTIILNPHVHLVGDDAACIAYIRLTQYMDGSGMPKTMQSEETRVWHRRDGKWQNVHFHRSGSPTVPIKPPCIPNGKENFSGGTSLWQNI
UniProt Q9SZU7, sequence (whole entry, unmodified, looked up): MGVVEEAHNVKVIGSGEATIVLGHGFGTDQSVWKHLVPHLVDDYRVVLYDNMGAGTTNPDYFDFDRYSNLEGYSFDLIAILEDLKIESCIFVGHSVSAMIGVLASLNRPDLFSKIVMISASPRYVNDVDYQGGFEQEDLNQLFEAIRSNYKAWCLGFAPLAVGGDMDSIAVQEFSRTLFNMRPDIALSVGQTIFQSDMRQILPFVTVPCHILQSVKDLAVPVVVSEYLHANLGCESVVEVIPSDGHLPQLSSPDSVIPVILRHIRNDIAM
UniProt P07949, sequence (whole entry, looked up): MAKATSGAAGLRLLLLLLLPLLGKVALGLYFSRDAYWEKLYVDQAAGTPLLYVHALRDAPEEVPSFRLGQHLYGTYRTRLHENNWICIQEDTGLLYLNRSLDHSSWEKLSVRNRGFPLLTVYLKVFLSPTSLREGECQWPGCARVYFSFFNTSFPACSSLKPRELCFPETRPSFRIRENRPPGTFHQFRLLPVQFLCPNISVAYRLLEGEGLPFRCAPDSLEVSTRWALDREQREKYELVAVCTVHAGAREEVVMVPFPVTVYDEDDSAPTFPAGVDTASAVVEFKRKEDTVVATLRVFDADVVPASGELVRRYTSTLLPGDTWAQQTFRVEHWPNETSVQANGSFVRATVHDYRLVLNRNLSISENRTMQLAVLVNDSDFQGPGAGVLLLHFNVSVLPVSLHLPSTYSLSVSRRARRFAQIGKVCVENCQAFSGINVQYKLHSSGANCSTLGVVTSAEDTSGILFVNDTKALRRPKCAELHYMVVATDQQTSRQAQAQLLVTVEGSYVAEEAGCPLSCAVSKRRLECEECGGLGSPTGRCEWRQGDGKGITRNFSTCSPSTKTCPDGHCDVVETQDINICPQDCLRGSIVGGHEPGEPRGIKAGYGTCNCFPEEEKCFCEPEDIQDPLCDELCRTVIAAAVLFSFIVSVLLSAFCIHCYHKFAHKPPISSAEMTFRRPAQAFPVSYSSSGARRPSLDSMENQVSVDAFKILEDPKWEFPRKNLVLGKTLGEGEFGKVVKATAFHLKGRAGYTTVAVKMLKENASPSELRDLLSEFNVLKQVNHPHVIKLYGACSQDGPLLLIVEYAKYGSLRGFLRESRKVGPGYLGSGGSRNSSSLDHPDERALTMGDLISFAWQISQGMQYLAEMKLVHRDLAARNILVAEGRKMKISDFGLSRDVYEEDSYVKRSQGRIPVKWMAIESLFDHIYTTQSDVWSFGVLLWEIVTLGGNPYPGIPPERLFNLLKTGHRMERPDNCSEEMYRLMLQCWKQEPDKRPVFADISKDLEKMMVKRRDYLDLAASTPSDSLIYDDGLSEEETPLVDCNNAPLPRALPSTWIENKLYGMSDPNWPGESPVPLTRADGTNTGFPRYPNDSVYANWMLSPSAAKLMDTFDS

| SMILES | tested on | test | test system | conditions | quantity | result |
| --- | --- | --- | --- | --- | --- | --- |
| CNc1ncc2c(/C=C/C(=O)N3CCC(OC)CC3)nn(Cc3cccc(C(F)(F)F)c3)c2n1 | WNK1 (Homo sapiens, UniProt Q9H4A3) | enzyme activity, inhibitor, radiometric | – | 1 µM | remaining activity | 100% |
| COc1cc2c(CCNC(C)=O)c[nH]c2cc1I | MTNR1A | GTPγS binding, agonist, radiometric | – | cell membranes | Emax | 77% |
| Cc1cc(NC(=O)Nc2c(NC3CCCC3)c3ccccc3oc2=O)ccc1Br | RET (Homo sapiens, UniProt P07949) | enzyme activity, inhibitor, radiometric | – | 0.1 µM | remaining activity | 97.2% |
| COc1cc(-c2cncc3c2CN(C)Cc2cc(N4CCNCC4)ccc2-3)cc(OC)c1OC | DYRK1A (Homo sapiens, UniProt Q13627) | enzyme activity, inhibitor | – | 1 µM | remaining activity | 113% |
| CC[C@H](C)[C@H](NC(=O)[C@H](CCC(N)=O)NC(=O)[C@@H](NC(=O)[C@H](CCSC)NC(=O)[C@H](CCCCN)NC(=O)[C@H](CO)NC(=O)[C@@H](NC(=O)[C@H](CCSC)NC(=O)[C@H](CC(C)C)NC(=O)[C@H](CC(N)=O)NC(=O)[C@@H](NC(=O)[C@@H](NC(=O)[C@H](CO)NC(=O)[C@H](CC(C)C)NC(=O)[C@H](C)NC(=O)[C@H](CCCNC(=N)N)NC(=O)[C@H](CCC(=O)O)NC(=O)[C@H](Cc1ccc(O)cc1)NC(=O)[C@H](Cc1ccccc1)NC(=O)[C@H](C)NC(=O)[C@H](CC(N)=O)NC(=O)[C@@H](N)CCCCN)[C@@H](C)CC)[C@@H](C)CC)[C@@H](C)O)C(C)C)C(=O)N[C@@H](CC(N)=O)C(=O)N[C@H](C(=O)O)C(C)C | MAPK3 (Homo sapiens, UniProt P27361) | enzyme activity, inhibitor, radiometric | – | 50 µM, 20 min | remaining activity | 98% |
| C=CC(=O)N1CCC(COCC(=O)N2CCN(c3nc(-c4cnc(N)nc4C(F)F)nc(N4CCOC[C@@H]4C)n3)CC2)CC1 | STK3 (Homo sapiens, UniProt Q13188) | binding, competition with immobilised ligand | – | 1 µM | remaining binding | 100% |
| COc1ccc(F)cc1C(=O)NCc1ccc(-c2nn([C@@H](C)C(F)(F)F)c(N)c2C(N)=O)cc1 | BTK (Homo sapiens, UniProt Q06187, C481S) | binding, SPR | – | – | kon | 85000 M⁻¹ s⁻¹ |
| N[C@@H](CC(=O)O)C(=O)O | SLC25A13 (Homo sapiens, UniProt Q9UJS0) | thermal stability, DSF | – | 100 µM | ΔTm | ~3 °C |
| Nc1ncnc2occ(-c3ccc(NC(=O)Nc4cc(C(F)(F)F)ccc4F)cc3)c12 | FLT3 (Homo sapiens, UniProt P36888, D835H) | cell-free assay, inhibitor | – | 20 µM | remaining signal | 0.55% |
| Cc1cc([C@@H](C)Nc2ccccc2C(=O)O)c2nc(N3CCC(F)(F)CC3)c(C#N)c(=O)n2c1 | PRKACA (Homo sapiens, UniProt P17612) | binding, competition with immobilised ligand | – | 10 µM | remaining binding | 83% |
| Cc1cc2c(cc1N1C(=O)c3cccc4c(Cl)ccc(c34)C1=O)n(C)c(=O)n2C | Transcription initiation factor TFIID subunit 1, BD2 (TAF1, Homo sapiens, UniProt P21675) | thermal stability, DSF | – | 10 µM | ΔTm | 2.2 °C |
| NC/C(=C\F)COc1cccc(Cn2c(=S)[nH]c(=O)c3[nH]cnc32)c1 | Lactoperoxidase (LPO, Bos taurus, UniProt P80025) | enzyme activity, inhibitor | – | 5 µM | remaining activity | 60% |
| O=C(NCCc1cccc2ccccc12)C1CCC1 | MTNR1A | β-arrestin recruitment, agonist | CHO-K1 | 90 min | Emax | 20% |
| CCCCC(=O)Nc1ccc(-c2ccc3ncn(CCC)c(=O)c3c2)cn1 | CAMK2D (Homo sapiens, UniProt Q13557) | binding, competition with immobilised ligand | – | 0.5 µM | remaining binding | 100% |
| C1=C/COCc2cc(ccc2OCCN2CCCC2)Nc2nccc(n2)-c2cccc(c2)COC/1 | MAP3K12 (Homo sapiens, UniProt Q12852) | cell-free assay | – | 0.1 µM | remaining signal | 22% |
| COc1cc(CNC(=O)c2cccc(C(F)(F)F)c2)cc(Br)c1OC | Replicase polyprotein 1ab, main protease (rep, Porcine epidemic diarrhea virus, UniProt P0C6Y4) | enzyme activity, inhibitor, FRET | – | 10 µM | inhibition | 0.74% |
| Cc1noc(NS(=O)(=O)c2ccc(N=NN(O)c3ccccc3)cc2)c1C | – | DPPH scavenging, absorbance | – | 60 µg/mL | inhibition | 10.9% |
| CC(=O)/C=C/C=C(C)/C=C/C1=C(C)CC(O)CC1(C)C (stereo in doubt) | KAI2 (Arabidopsis thaliana, UniProt Q9SZU7) | thermal stability, DSF | – | 100 µM | ΔTm | 8.34 °C |
| Cc1cc(NS(=O)(=O)c2ccc(N=NN(C)O)cc2)no1 | – | DPPH scavenging, absorbance | – | 240 µg/mL | inhibition | 40.6% |
| COc1ccc2[nH]cc(CCNC(C)=O)c2c1I | MTNR1A | GTPγS binding, agonist, radiometric | – | cell membranes | Emax | 33% |
| CC1CCCN1c1nccc(-c2cnn3ncccc23)n1 (stereo not drawn) | SIK1 (Homo sapiens, UniProt P57059) | binding | – | 1 µM | remaining binding | 100% |

A few entries again:
| SMILES | tested on | test | test system | conditions | quantity | result |
| --- | --- | --- | --- | --- | --- | --- |
| O=C(NCCc1cccc2ccccc12)C1CCC1 | MTNR1A | β-arrestin recruitment, agonist | CHO-K1 | 90 min | Emax | 20% |
| CCCCC(=O)Nc1ccc(-c2ccc3ncn(CCC)c(=O)c3c2)cn1 | CAMK2D (Homo sapiens, UniProt Q13557) | binding, competition with immobilised ligand | – | 0.5 µM | remaining binding | 100% |
| C1=C/COCc2cc(ccc2OCCN2CCCC2)Nc2nccc(n2)-c2cccc(c2)COC/1 | MAP3K12 (Homo sapiens, UniProt Q12852) | cell-free assay | – | 0.1 µM | remaining signal | 22% |
